Assay results from different studies.
± gives the spread as reported.

`CC1(C)[C@H](NC(=O)c2cnn(CCO)c2)C(C)(C)[C@H]1Oc1ccc(C#N)c(Cl)c1` has an IC50 of over 10 µM (MDA-MB-415; cell growth or viability, CCK-8; 7 days).
`CC(C)OC(=O)[C@H](CO)NCc1cc(Cl)c(OCc2cccc(-c3ccccc3)c2Br)cc1OCc1cccnc1` has an IC50 of over 10 µM (HCT-8; cell growth or viability, MTT).
The IC50 of `COc1ccc2c(c1)CN1C(=S)N([C@H](C)c3ccccc3)C(=O)C1=N2` is reported as 1.9 ± 0.4 µM (healthy human PBMCs; cell viability, resazurin).
For `Cn1cc(-c2n[nH]c3ccc(NC(=O)c4cccc(NC(=O)Nc5cc(C(F)(F)F)ccc5F)c4)cc23)cn1`, the IC50 was over 50 µM (KM12; cell growth or viability, ATP luminescence; 72 h).
`CCC(=CCc1c(O)cc2c(c1O)C(=O)CC(c1cccc(O)c1)O2)CC` (centres unmarked) has an IC50 of over 120 µM (normal pig cell line; cytotoxicity, MTT; 48 h).
`C[C@H]1CN(C2COC2)CCN1c1ccc(Nc2cc(-c3ccnc(N4CCn5c(cc6c5CC(C)(C)C6)C4=O)c3CO)cn(C)c2=O)nc1` gave an IC50 of 0.014 µM (TMD8, parental; cell viability, CellTiter-Glo; 4 days).
The IC50 of `CNS(=O)(=O)Nc1nccc(Cc2c(C)c3ccc(Oc4ncccc4F)cc3oc2=O)c1F` is reported as 0.0453 µM (NCI-H747; cell viability; 7 days).
With `CC(C)c1ccc(N(C)c2ccc3c(c2)OCC[C@H]3CNc2cnccc2C(=O)O)cc1` the IC50 was 0.00653 µM (KARPAS-422; cell growth or viability, ATP luminescence; 7 days).
For `COC(=O)N1c2ccc3c(nc(Cc4ccccc4)n3[C@@H]3CCC[C@@H](C(=O)O)C3)c2CC[C@@H]1C`, the IC50 was 2.69 µM (MDA-MB-436; cell proliferation, CellTiter-Glo, geometric mean; 240 h).
The IC50 of `Nc1ncc(-c2cc(-c3cnn(CC(F)(F)F)c3)ncc2F)nc1C(=O)NC1CNCC(F)C1` (centres unmarked) is reported as 1.87 µM (MDA-MB-436; cell growth or viability, ATP luminescence; 72 h).
The IC50 of `CCn1nc(Cl)c2c1-c1cnc(N)c(c1)O[C@H](C)c1cc(F)ccc1-c1nn(C)cc1C2` is reported as 0.00195 µM (KARPAS-299 (NPM1-ALK); cell viability).
The IC50 of `C=CC(=O)N1CC2C(=O)N(CCN(C)C)c3c(c4cc(Cl)c(-c5c(O)cccc5F)nc4n(-c4c(C)ccnc4C(C)C)c3=O)N2CC1C` (centres unmarked) is reported as 0.0102 µM (NCI-H1792; cell growth or viability).
The IC50 of `O=[N+]([O-])c1ccc(C=NNC(=S)Nc2ccccc2)o1` is reported as over 100 µM (CAKI-1; cell growth or viability, resazurin).
With `C[C@H](c1cccc2ccccc12)N1C(=O)C2=Nc3ccccc3CN2C1=S` the IC50 was 3.1 ± 0.01 µM (healthy human PBMCs; cell viability, resazurin).
With `C=CC(=O)N1C[C@H](C)N(c2nc(OC[C@@]34CCCN3C[C@H](F)C4)nc3c(F)c(-c4ccc(F)c5sc(N)c(C#N)c45)c(C(F)(F)F)cc23)C[C@H]1C` the IC50 was 0.0053 µM (Ba/F3 expressing KRAS G12C/G13D; cell viability; 72 h).
With `NC(=O)c1ccc(-c2ccccc2Cl)c2c3c([nH]c12)CC[C@H](N)C3` the IC50 was 0.0782 µM (NCI-H446; cell proliferation; 96 h).
`CCOc1cncc(-c2ccc(NC(=O)C3(c4ccnc(NS(=O)(=O)C5CC5)n4)CCOCC3)nc2)n1` has an IC50 of 10 µM (NCI-H727; cell growth or viability, ATP luminescence; 72 h).
